Assay results collected from several papers.
Parts stem from different laboratories: compare values within a part only.

Set 1
Target: RING finger protein unkempt homolog, zinc fingers 1-6, GST-SBP tag (UNK, Homo sapiens, UniProt Q9C0B0, residues 30-357)
Method: RNA Bind-n-Seq
Form: RNA
Matrix: in vitro
Tested at: not given
Notes: RNA with constant flanks, human and mouse sites, ends assumed
Baseline: input RNA pool
Direction: higher = stronger binding
Residues (chain): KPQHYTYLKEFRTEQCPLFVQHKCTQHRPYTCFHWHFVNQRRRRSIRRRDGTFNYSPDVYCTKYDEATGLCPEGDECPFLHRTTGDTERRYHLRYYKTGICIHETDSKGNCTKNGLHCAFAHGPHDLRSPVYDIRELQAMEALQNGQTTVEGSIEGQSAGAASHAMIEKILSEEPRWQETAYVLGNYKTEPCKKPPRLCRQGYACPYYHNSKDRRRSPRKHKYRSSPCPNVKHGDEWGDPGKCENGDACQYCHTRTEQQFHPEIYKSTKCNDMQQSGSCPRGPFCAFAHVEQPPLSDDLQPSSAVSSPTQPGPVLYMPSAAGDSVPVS
Strand	bound/input enrichment
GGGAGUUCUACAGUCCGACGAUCUUGUUCAUUGCUAAGUUCCUGUCUGACUUUAUUGUAACUUCUGAAAGGCUAGAUUUCCUCUCUGCUCUUCUCUUCAGCAAUAGGGAAAGAAAAUGGACUUGAGAGUGUCCGGUGAAGGCUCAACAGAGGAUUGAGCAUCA	0.667 ratio
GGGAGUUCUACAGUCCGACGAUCGUUCAAAUAUUAUGUGAAUGUUGUUAAGAAAACAGACUGUAAUUUACCCUAGUAAACUAGUAGUAAUGUCAAGAUUCAAACCUAGGUGUACUCAAAAAUCAGCUCUCUAGUGUUAAGUCCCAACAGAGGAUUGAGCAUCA	2.46 ratio
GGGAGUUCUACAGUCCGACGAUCGCACUUCUCAAAUACUGGCCAAAGACUCACAGUCCAAAAGAAGUAAUGUUCUUAAACGAAUUAGAAGAGAUUUUAGAUGUCAUUGAACCAUCAGAAUUUGUGAAGAUCAUGGAACCCCUCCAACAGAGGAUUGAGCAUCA	0.677 ratio
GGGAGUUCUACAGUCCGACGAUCAUCUGUGGCAUUGGCUGGCAUUUGGUUGGAAACUCAUGUUUGAAAAUUACUACUGCCAAGGAGAAUUAUGACAAUGCUAAAUUGUUCUGUAGGAACCACAAUGCCCUUUUGGCUUCUCUUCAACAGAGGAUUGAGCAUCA	0.248 ratio
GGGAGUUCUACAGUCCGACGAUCCAGAGUUUACUUUUCAGAUCAAAUUGUUUAUGGUUUUACAAAUGUGAUUUCUACUUGCCAACUUUUUUUUUGUAACUUGUUCCCUUAUACCUCCUUGAUUGAAUACCAGACAGCCUAGACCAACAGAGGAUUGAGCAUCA	0.686 ratio
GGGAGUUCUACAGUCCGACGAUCCUCCAGACACAAGUGGCUGAGAUGUCCCGAGUCAUACGUGAUCUGCAGUCCAGGAGUUGUUUUAGAUUUCAUCAUUCUAGGCCAAGUGAGAGCUCGUCAGUUCCUUGGGAUAUCUCCAGCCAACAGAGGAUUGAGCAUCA	0.467 ratio
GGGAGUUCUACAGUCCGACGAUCUUGGGCUUCUGGAGGGCCUCUCUCGCCUGCCCGACGUCCUGCAAAUGCAGUUCCGCUAGGAUUUGGUGUACUGAGCCUUCUCCAGGCAUCGUGGCAUUCCCGAGGUUGGAACCUAACAGCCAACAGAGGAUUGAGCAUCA	0.0607 ratio
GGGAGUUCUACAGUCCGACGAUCAGUUCUGUUUAUCCCACAAAGGAUGAGGAGAACAACCCCCUGGAGACAGAGUAUGGCCUGUCUGUCUACAAGGACCAUCAGACCAUCACCAUCCAGGAGAUGCCAGAGAAGGCCCCUGCUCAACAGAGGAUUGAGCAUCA	0.0594 ratio
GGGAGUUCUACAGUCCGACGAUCAAUAACUAUUGUUUACAGAUAAAUCCAGCAUCAACUAUAAAUCCUGACCAUCUUUCAUACUUCUGUUUUAUUGGUCGCUUUAUUGCAAUGGCACUGUUCCAUGGAAAGUUUAUUGAUACUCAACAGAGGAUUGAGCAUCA	0.21 ratio
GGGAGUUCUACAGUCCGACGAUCAUUUUUGAUGAAUUCCGAACAGUCCUGUGACUUCUUUCUCCUGCUCCAGUGACAGGAUGUUCUAUGACUAGAAUGAACUUGGACGUGAGAAAGAUACUUGACUCCUCAUGCAACGUGCAUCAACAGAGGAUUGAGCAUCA	0.0963 ratio
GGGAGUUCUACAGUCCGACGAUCUUGCAGGGAAUGGGCUACAUACCAUCUGCCAGCAUGACCCGGCUCGCCCGAUCACGAACCCACUCCACCUCAAGUAGCAUUGGCUCUGGAGAAAGUCCCUUUAGCAGGUCUGUGACCAGCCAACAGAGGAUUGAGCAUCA	0.127 ratio

Set 2
Target: Prothrombin, mature alpha-thrombin (F2, Homo sapiens, UniProt P00734)
Method: aptamer microarray, sandwich
Form: DNA with 2'F-ANA
Matrix: in vitro
Tested at: 200 nM
Notes: whole 15-mer aptamer, many near background
With: Cy3 exosite-II aptamer, 400 nM
Direction: higher = stronger binding
Strand: GGTTGGTGTGGTTGG
Modification	mean fluorescence intensity [a.u.]
2'F-ANA at 2 5 6 7 11 14 15	51.5
2'F-ANA at 1 7 10 12 14	56
2'F-ANA at 1 2 3 5 8 9 12 13 14	66.2
2'F-ANA at 1 2 7 8 11 14 15	58.3
2'F-ANA at 2 3 4 5 8 12 13 15	141
2'F-ANA at 1 3 4 5 9 15	59.5
2'F-ANA at 1 8 10 13 15	53.9
2'F-ANA at 1 3 4 6 7 8 9 10 12 13 14 15	56.7
2'F-ANA at 1 3 4 6 8 10 15	62.3
2'F-ANA at 3 5 8 10 11 12 13	58.8
2'F-ANA at 3 4 5 6 7 8 9 10 11 12 13	53.8
2'F-ANA at 1 2 3 5 7 8 9 11 13 15	58
2'F-ANA at 1 5 6 9 10 13	43.3
2'F-ANA at 1 3 6 11	221
2'F-ANA at 1 4 9 11 12 14	50.3
2'F-ANA at 1 2 5 7 8 9 12 13 15	84.3
2'F-ANA at 1 2 4 6 7 10	47.1
2'F-ANA at 2 4 6 7 11 13 14	76.9
2'F-ANA at 2 5 7 9 10 11 12	50.2
2'F-ANA at 1 2 3 4 5 8 9 10 11 12 13 15	50.1
2'F-ANA at 1 2 3 4 6 9 10 11 14 15	50.1
2'F-ANA at 8 10 11 12 14 15	98.5
2'F-ANA at 2 3 4 7 8 11 12 14	428
2'F-ANA at 2 4 9 12 13 15	357

Set 3
Target: Sal-like protein 4, full length isoform A (SALL4, Homo sapiens, UniProt Q9UJQ4, residues 1-1053)
Sequence of UniProt Q9UJQ4 (whole entry, looked up): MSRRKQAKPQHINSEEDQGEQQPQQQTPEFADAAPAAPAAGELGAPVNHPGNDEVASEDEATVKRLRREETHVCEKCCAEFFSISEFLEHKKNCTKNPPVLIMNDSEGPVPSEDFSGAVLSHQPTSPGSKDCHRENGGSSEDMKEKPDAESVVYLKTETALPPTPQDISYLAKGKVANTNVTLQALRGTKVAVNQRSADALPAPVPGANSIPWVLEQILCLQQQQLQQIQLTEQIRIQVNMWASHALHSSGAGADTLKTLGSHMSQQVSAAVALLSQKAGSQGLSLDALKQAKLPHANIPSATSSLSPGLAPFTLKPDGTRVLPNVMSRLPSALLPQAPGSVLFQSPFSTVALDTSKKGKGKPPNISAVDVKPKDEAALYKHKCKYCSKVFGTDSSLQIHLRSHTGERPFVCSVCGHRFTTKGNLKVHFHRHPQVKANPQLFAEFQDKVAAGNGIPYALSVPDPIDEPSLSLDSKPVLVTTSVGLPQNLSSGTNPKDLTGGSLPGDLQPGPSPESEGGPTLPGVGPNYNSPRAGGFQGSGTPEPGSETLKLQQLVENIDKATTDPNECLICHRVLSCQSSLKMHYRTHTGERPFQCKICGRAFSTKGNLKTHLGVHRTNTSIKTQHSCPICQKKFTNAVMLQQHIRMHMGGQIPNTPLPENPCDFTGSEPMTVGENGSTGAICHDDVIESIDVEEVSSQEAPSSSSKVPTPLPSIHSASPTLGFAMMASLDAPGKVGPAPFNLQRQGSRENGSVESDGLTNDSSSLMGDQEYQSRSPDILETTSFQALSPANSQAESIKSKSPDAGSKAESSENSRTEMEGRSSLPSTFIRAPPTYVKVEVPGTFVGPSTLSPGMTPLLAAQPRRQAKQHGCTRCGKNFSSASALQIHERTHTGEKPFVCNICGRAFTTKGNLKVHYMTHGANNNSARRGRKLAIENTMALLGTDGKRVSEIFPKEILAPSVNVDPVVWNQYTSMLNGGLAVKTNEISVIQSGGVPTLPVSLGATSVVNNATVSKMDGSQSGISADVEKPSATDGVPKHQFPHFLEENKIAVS
Method: universal PBM
Form: double-stranded DNA, one strand shown
Matrix: in vitro
Tested at: 600 nM
Notes: 8-mer, flanks averaged, mean of replicates
Direction: higher = stronger binding
Strand	E-score
CTACCCGA	-0.112
ACTATTAT	0.366
GCCCAGCC	-0.346
GCACGGAA	-0.148
AAAGCGCT	0.159
AGAGAGTG	-0.102
AATTACTC	0.305
CAGTCCTC	-0.0746
AGTGGAGG	-0.0695
CCGAGACA	-0.218
GCTAGGAC	-0.091
GACTAATC	0.0451
GCTGGAAA	-0.0678
ATTCGTGG	0.014
AATTGCGA	0.147
AGGCTGTA	0.121
CGAAGATC	0.0216
CAAGCCGA	-0.138
ACGGCAGT	-0.104
GATGGTCA	-0.0569
CTACCGAG	-0.223
CACCTTAG	-0.114
AGAGCGTA	-0.0822
AGTGAAAT	0.186
CTGGGCGA	-0.235

Set 4
Target: RNA binding protein fox-1 homolog 2, RRM domain, GST-SBP tag (RBFOX2, Homo sapiens, UniProt O43251-10, residues 100-194)
Method: RNA Bind-n-Seq
Form: RNA
Matrix: in vitro
Tested at: 365 nM
Notes: natural RNA segment, single round, ends assumed
Baseline: no-protein control
Direction: higher = stronger binding
Residues (chain): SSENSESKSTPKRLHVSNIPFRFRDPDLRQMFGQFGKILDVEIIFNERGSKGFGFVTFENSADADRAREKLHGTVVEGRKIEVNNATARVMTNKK
Strand	RBNS enrichment (R)
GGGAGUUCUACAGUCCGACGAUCCUGUUGUGGGAAUCGCGCCCACCCCCAUCCGUGUGUUGUAGCCACUCACGGUUUGCAUCAAGAGUGUUUUUUGUAACUGCCUCUGGACUUGGGACAGUGAGUAGGAUCAAUGGAAUUCUCGGGUGCCAA	1.26
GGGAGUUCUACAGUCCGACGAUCAACCGUUUCCUUCUUGUCACUGAAAUAUAUGGACCUUAAUUUGUAUCCUGACUGACUCAACCCAGCAGAGCAUAAAUUGACUUGAGAGCCUUACCUUUGAUGUCUGAAAUUGGAAUUCUCGGGUGCCAA	0.249
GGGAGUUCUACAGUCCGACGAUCUGGUGGGGGUGGAGUUCCCUCCCAAACACCAGACCACACAGUCCUCCAAAAAUAAACAUUUUAUAUAACAUUUGGUUUUGCUUUUCUGUUCUCCCCAACAGGGAACUCUGUGGAAUUCUCGGGUGCCAA	0.349
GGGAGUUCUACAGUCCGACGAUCCAUGUGAUGAUACAUGGGAAGAACUAUAGAAAGAAUUAUCCAGAAGCUAAGAUUUGAUGGCCAGCUGGUUGCCAAAACCUCAAGUCAAUCCUGUGUGCUGGUUAGUUAUGUGGAAUUCUCGGGUGCCAA	0.436
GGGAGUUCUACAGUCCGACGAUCUACUCUGAUUGGCUAGUUUGGGUUCAUUUUUACUGUAUAUUUAUAGUAAUAAAAUCAUGCAGCAAUAUUCUAUGUGUGCCUUUGUUCUGGCACAGCACUAUGUAGGCAGCUGGAAUUCUCGGGUGCCAA	0.432
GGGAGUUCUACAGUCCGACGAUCUAUAAUACUGUUAAAUACCCCAUGCUUUGAUCAGGUGGAAAAAAUCAAUAAAGUUUUAAAAAGUAAAGCUGCUCCCAGUGUCAUCAUUUAUAUCCUGUCAAGCCACGGGUUGGAAUUCUCGGGUGCCAA	0.592
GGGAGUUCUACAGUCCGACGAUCGACUGGUUUCCAUAUCCCCACCCUACACCAGGGUUCCAUUUGGAAGUAUACCUUGUUUAUCAGUCAGUGUUGCUUAGGUUCUCACUUCUCCAGUCAUUGUAAUGUCUACAUGGAAUUCUCGGGUGCCAA	0.299
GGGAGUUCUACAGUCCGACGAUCCUUGUGAAUGAAAAUGAACCCAAGUGUUUCACGUGAAGAUGAGCCAUUUCUAUCAUGCAUUCCGAUGUCAUGGCAGAAAAUUUUGAAGAUAAAAAAAUAAGAUAAUCAAAUGGAAUUCUCGGGUGCCAA	0.791
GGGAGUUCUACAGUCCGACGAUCUCUUGCUAUCCCUGUGCUAGUUCCAUGUUUUAGAAGCAAAGUGAUACUGGGGAGGAGAGGAGGGCAAGUGAGAGGAGCCAGUGCCUCCUGAAGCCCUUGCUCCACUGCCAUGGAAUUCUCGGGUGCCAA	0.435
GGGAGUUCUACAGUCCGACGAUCCACUCACCCCUUCUAAUCCUGAAGGGAAGCCCAUUCUAAACUCCUUUCCUGCAAACCCAUUUCCAGCUCCUAGUAGCUUUCCUCCCAAAGGCUUUCUUUCCAAUCCUUUAUGGAAUUCUCGGGUGCCAA	0.775
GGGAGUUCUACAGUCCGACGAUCUGUGGGUCAACCAUGAAGAUGUGGCAUUGCAGACGGGGGAACAUGUGGAUGCAUGGCUAUCGCCCUGAACAGUCCCUGCAGCUACUUGUGUUAACACAGAACUGAUGUUUUGGAAUUCUCGGGUGCCAA	0.221
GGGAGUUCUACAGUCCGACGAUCGUUCCUAGAACAUUCACUGUGCCUUUGCCUGCUUGCUGGCUGCAGCCUCAGAAGGAAAGCCAGGGGCAAGCAAAGGAGACCAAAAUUUCUUGGGGAAGAUUUUUCACGCAUGGAAUUCUCGGGUGCCAA	1.2

Repeated from above (set 2):
Modification	mean fluorescence intensity [a.u.]
2'F-ANA at 1 3 6 11	221
2'F-ANA at 1 4 9 11 12 14	50.3
2'F-ANA at 1 2 5 7 8 9 12 13 15	84.3
2'F-ANA at 1 2 4 6 7 10	47.1
2'F-ANA at 2 4 6 7 11 13 14	76.9
2'F-ANA at 2 5 7 9 10 11 12	50.2
2'F-ANA at 1 2 3 4 5 8 9 10 11 12 13 15	50.1
2'F-ANA at 1 2 3 4 6 9 10 11 14 15	50.1
